{"data": "Measured values of several laboratories", "note": "Every numbered part comes from another study and shows a few of its results, in no order. Substitutions count along the parent as printed."}
{"data": "Series 1", "target": "Histone acetyltransferase KAT6A, winged helix 2, GST fusion (KAT6A, Homo sapiens, UniProt Q92794, residues 85-181)", "method": "protein binding microarray", "form": "double-stranded DNA, one strand shown", "medium": "in vitro", "concentration": "not given", "notes": "8-mer, flanks averaged, mean of 2 arrays, mostly near background", "reference": "not given", "reading": "higher = stronger binding", "Construct (chain)": "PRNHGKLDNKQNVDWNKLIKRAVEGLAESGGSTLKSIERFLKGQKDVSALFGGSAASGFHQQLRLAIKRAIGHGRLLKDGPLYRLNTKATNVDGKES"}
{"Oligonucleotide": "ACGTGCTA", "E-score": -0.178}
{"Oligonucleotide": "CGCACTCA", "E-score": 0.00838}
{"Oligonucleotide": "CCTCCCTA", "E-score": -0.0663}
{"Oligonucleotide": "AGAAAACC", "E-score": -0.0965}
{"Oligonucleotide": "GCCTATTA", "E-score": "9e-05"}
{"Oligonucleotide": "CACGACTA", "E-score": -0.203}
{"Oligonucleotide": "AAAATTGG", "E-score": -0.159}
{"Oligonucleotide": "TAGCTCCA", "E-score": 0.109}
{"Oligonucleotide": "CGGAGACG", "E-score": 0.209}
{"Oligonucleotide": "AGGGAATA", "E-score": -0.0478}
{"Oligonucleotide": "GCAACCAC", "E-score": 0.124}
{"Oligonucleotide": "CATCTCAA", "E-score": -0.184}
{"Oligonucleotide": "ATAGGCTC", "E-score": -0.0708}
{"Oligonucleotide": "ACGTGGAA", "E-score": -0.139}
{"Oligonucleotide": "CTAGAGTC", "E-score": -0.133}
{"Oligonucleotide": "GCAGAATA", "E-score": -0.0208}
{"Oligonucleotide": "AGGTTGCA", "E-score": -0.0346}
{"Oligonucleotide": "ACCTTCGC", "E-score": 0.083}
{"Oligonucleotide": "GTAGGGCA", "E-score": 0.00633}
{"data": "Series 2", "target": "Centromere-binding protein 1, full length, N-terminal tag (CBF1, Saccharomyces cerevisiae, UniProt P17106, residues 1-351)", "method": "protein-binding microarray", "form": "double-stranded DNA, one strand shown", "medium": "in vitro", "concentration": "0.8 µM", "notes": "whole 60-bp probe, no competitor", "reading": "higher = stronger binding", "all sequences stand within": "… GTCTTGATTCGCTTGACGCTGCTG", "chain of UniProt P17106 (whole entry, looked up)": "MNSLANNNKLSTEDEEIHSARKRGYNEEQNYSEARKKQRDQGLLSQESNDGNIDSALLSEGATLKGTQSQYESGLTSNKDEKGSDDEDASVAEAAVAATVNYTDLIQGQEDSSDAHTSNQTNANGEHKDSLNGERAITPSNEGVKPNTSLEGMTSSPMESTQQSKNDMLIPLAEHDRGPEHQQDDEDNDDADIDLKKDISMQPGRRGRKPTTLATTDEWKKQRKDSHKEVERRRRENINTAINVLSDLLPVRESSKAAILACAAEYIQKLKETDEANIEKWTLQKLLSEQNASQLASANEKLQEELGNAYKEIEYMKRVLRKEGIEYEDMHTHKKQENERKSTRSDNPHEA"}
{"Oligonucleotide": "GAATGTGGACCCCTACAGGCGTGATTTTCTGTCTAG", "fluorescence intensity [a.u.]": 540}
{"Oligonucleotide": "CTACATCGAAAGTACCACCACCCAAGTCGAAAATTC", "fluorescence intensity [a.u.]": 518}
{"Oligonucleotide": "GAATAGAGATGAGCCGTCACCATGAATATAGCGTAG", "fluorescence intensity [a.u.]": 531}
{"Oligonucleotide": "CCTAACTACTATAAACGCACCACATAGCTTCGTACA", "fluorescence intensity [a.u.]": 539}
{"Oligonucleotide": "TGTACGAAGCTATGATAGGTGATTATAGTAGTTAGG", "fluorescence intensity [a.u.]": 488}
{"Oligonucleotide": "TGTACGAAGCTATACCACATGTTTATAGTAGTTAGG", "fluorescence intensity [a.u.]": 667}
{"Oligonucleotide": "GAACTTTCTATGTGTATCACCTGTTATACGTGTTAG", "fluorescence intensity [a.u.]": 918}
{"Oligonucleotide": "GAACTCCGATTTTGTCACGCAGCGTTCGTTTTTTAG", "fluorescence intensity [a.u.]": 697}
{"Oligonucleotide": "GAAGACACACTTTAACACCTGAGTGGGTCATCATAG", "fluorescence intensity [a.u.]": 548}
{"Oligonucleotide": "CTACAGTCGCTTTAATGCGTGATTATAGAAAAGTTC", "fluorescence intensity [a.u.]": 673}
{"Oligonucleotide": "GAATGATTAATTTGTTTCACCTGAGACTCTGTCTAG", "fluorescence intensity [a.u.]": 498}
{"Oligonucleotide": "CTATTTTGATTACTAGGCATGATGTATGGAGGATTC", "fluorescence intensity [a.u.]": 560}
{"Oligonucleotide": "TGTACGAAGCTATTGTGCGTGTATATAGTAGTTAGG", "fluorescence intensity [a.u.]": 547}
{"Oligonucleotide": "CCTAACTACTATAGACACGCGATATAGCTTCGTACA", "fluorescence intensity [a.u.]": 565}
{"Oligonucleotide": "GAACCAATTTGTAGTCATGACGACATAGCTGGGTAG", "fluorescence intensity [a.u.]": 580}
{"data": "Series 3", "target": "Interferon regulatory factor 5, full length, phosphomimetic (IRF5, Homo sapiens, UniProt Q13568-2, residues 1-514, S451D/S453D/S456D/S462D)", "method": "protein-binding microarray", "form": "double-stranded DNA, one strand shown", "medium": "in vitro", "concentration": "940 nM top", "notes": "60-bp whole probe", "added": "salmon DNA 0.4 mg/ml", "reference": "random background probes", "reading": "higher = stronger binding", "all sequences stand within": "GCCTAGCAC … GTCTTGATTCGCTTGACGCTGCTG"}
{"Oligonucleotide": "TCAGATCTCAGTCTCGATTAGTGCTAG", "fitted relative affinity [z-score]": 3.31}
{"Oligonucleotide": "CCCGCCCCGCCCCGCCCGCAGTGCTAG", "fitted relative affinity [z-score]": -0.459}
{"Oligonucleotide": "GACGATTTTAGTTCCGAGACGTGCTAG", "fitted relative affinity [z-score]": 0.871}
{"Oligonucleotide": "GACGAACTGAGTCTCGAGCCGTGCTAG", "fitted relative affinity [z-score]": 0.298}
{"Oligonucleotide": "GTCGGTTCCGGTTTCGGGACGTGCTAG", "fitted relative affinity [z-score]": 7.36}
{"Oligonucleotide": "TTAGGTTTAGGTTCCGGTTAGTGCTAG", "fitted relative affinity [z-score]": 1.9}
{"Oligonucleotide": "GAGGAACTGAGTTTCGAGACGTGCTAG", "fitted relative affinity [z-score]": 3.5}
{"Oligonucleotide": "GAGAAAATGATTTTTTTCATGTGCTAG", "fitted relative affinity [z-score]": -0.0134}
{"Oligonucleotide": "TTAGGTATCGACACGGGGTTAGTGCTA", "fitted relative affinity [z-score]": 5.42}
{"Oligonucleotide": "TTAGTACTGGGTATCGGTTAGTGCTAG", "fitted relative affinity [z-score]": 3.6}
{"Oligonucleotide": "AGGGTCATCCATCTGAACCAGTGCTAG", "fitted relative affinity [z-score]": -0.0233}
{"Oligonucleotide": "TTAGGTCTCGGCCTCGGTTAGTGCTAG", "fitted relative affinity [z-score]": 2.4}
{"data": "Series 4", "target": "ABI1, truncated, D143A, DHFR fusion (Arabidopsis thaliana)", "method": "DHFR PCA, deep sequencing", "medium": "yeast", "notes": "methotrexate growth selection, single substitutions", "added": "(+)-ABA 0.39 µM", "reference": "wild-type fitted maximum", "reading": "higher = stronger binding", "starting sequence": "PYL1, truncated, DHFR fusion (Arabidopsis thaliana); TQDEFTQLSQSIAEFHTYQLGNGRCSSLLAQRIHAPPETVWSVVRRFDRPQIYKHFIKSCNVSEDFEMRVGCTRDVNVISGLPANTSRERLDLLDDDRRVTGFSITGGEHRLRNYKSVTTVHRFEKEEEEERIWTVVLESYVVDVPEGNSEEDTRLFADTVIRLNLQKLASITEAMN"}
{"Change": "R24D", "relative binding score": "-1.96%"}
{"Change": "L28V", "relative binding score": "52.2%"}
{"Change": "G148V", "relative binding score": "-6.17%"}
{"Change": "L20S", "relative binding score": "52.2%"}
{"Change": "I57H", "relative binding score": "-7.74%"}
{"Change": "L169V", "relative binding score": "-5.72%"}
{"Change": "L20E", "relative binding score": "49.9%"}
{"Change": "N149S", "relative binding score": "61.4%"}
{"Change": "R88I", "relative binding score": "57.8%"}
{"Change": "A35I", "relative binding score": "-9.93%"}
{"Change": "N61V", "relative binding score": "64.9%"}
{"Change": "D97P", "relative binding score": "4%"}
{"Change": "G107I", "relative binding score": "-7.44%"}
{"Change": "L82Q", "relative binding score": "11.1%"}
{"Change": "P146N", "relative binding score": "-14.2%"}
{"Change": "K54R", "relative binding score": "23.5%"}
{"data": "Series 5", "target": "Prothrombin, mature alpha-thrombin (F2, Homo sapiens, UniProt P00734)", "method": "aptamer microarray, sandwich", "form": "DNA with 2'F-ANA", "medium": "in vitro", "concentration": "200 nM", "notes": "whole 15-mer aptamer, many near background", "added": "Cy3 exosite-II aptamer, 400 nM", "reading": "higher = stronger binding", "oligonucleotide": "GGTTGGTGTGGTTGG"}
{"Modification": "2'F-ANA at 2 4 7 8 9 10 11 13 14", "mean fluorescence intensity": "105 a.u."}
{"Modification": "2'F-ANA at 1 2 4 5 8 9 10 11 12 13 15", "mean fluorescence intensity": "140 a.u."}
{"Modification": "2'F-ANA at 2 4 5 6 7 8 9 10 13 14 15", "mean fluorescence intensity": "53.9 a.u."}
{"Modification": "2'F-ANA at 2 4 5 6 7 8 9 11 13 14", "mean fluorescence intensity": "48.4 a.u."}
{"Modification": "2'F-ANA at 1 2 3 5 6 7 10 11 13 14", "mean fluorescence intensity": "53.1 a.u."}
{"Modification": "2'F-ANA at 2 3 4 5 11 12 13 15", "mean fluorescence intensity": "102 a.u."}
{"Modification": "2'F-ANA at 2 3 4 5 8 11 12 13 14", "mean fluorescence intensity": "60.2 a.u."}
{"Modification": "2'F-ANA at 2 3 7 8 9 11 14", "mean fluorescence intensity": "440 a.u."}
{"Modification": "2'F-ANA at 1 2 6 7 9 10 11 13 14 15", "mean fluorescence intensity": "51.1 a.u."}
{"Modification": "2'F-ANA at 1 2 3 4 7 8 9 12 13", "mean fluorescence intensity": "266 a.u."}
{"Modification": "2'F-ANA at 1 7 11 12 13 14 15", "mean fluorescence intensity": "71.3 a.u."}
{"Modification": "2'F-ANA at 4 8 9 13 15", "mean fluorescence intensity": "186 a.u."}
{"Modification": "2'F-ANA at 1 3 6 7 9 13 14 15", "mean fluorescence intensity": "74.5 a.u."}
{"Modification": "2'F-ANA at 1 2 4 5 6 7 8 10 12 13", "mean fluorescence intensity": "73.2 a.u."}
{"Modification": "2'F-ANA at 1 2 3 5 8 10 11", "mean fluorescence intensity": "58.3 a.u."}
{"Modification": "2'F-ANA at 3 5 6 7 8 9 11 14", "mean fluorescence intensity": "51.9 a.u."}
{"Modification": "2'F-ANA at 1 3 5 7 8 9 10 11 15", "mean fluorescence intensity": "50.8 a.u."}
{"data": "Further values, each from its own experiment"}
{"Substance": "PhoQ, residues 284 288 289 292 302 303 WSHMKI", "target": "PhoP, residues 12 14 15 18 19 GHCSL (Escherichia coli, UniProt P23836)", "assay": "Sort-seq, item: YFP reporter", "test system": "E. coli", "conditions": "PhoQ-PhoP variant library, added: 10 µM Mg2+", "how to read": "reference: high Mg2+ state, higher = stronger signaling", "quantity": "fold induction", "value": 2.48}
{"note": "For quick reference, copied from above (series 4):"}
{"Change": "L169V", "relative binding score": "-5.72%"}
{"Change": "L20S", "relative binding score": "52.2%"}
{"Change": "R24D", "relative binding score": "-1.96%"}
{"Change": "L82Q", "relative binding score": "11.1%"}
